# Measurements collected from several papers.
# A part holds a random share of what one study measured.
# Sequence of UniProt Q15569 (whole entry, looked up): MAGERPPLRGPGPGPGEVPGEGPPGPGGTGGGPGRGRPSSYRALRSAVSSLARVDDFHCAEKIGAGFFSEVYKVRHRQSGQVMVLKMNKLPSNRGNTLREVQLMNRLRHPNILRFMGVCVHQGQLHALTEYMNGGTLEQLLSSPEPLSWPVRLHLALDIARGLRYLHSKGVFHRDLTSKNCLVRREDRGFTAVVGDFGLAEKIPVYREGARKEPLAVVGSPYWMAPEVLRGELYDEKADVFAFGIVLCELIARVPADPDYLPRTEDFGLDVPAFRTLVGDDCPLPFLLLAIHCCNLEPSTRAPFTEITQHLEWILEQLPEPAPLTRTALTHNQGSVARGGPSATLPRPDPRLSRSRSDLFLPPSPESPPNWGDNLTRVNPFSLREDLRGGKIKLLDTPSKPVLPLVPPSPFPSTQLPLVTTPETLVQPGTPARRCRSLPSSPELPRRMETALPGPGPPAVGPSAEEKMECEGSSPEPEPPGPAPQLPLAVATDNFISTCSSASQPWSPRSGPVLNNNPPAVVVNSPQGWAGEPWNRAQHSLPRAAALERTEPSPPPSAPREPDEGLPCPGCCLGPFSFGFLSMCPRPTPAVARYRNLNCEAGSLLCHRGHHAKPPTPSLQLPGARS
# Sequence of UniProt Q8IVW4 (whole entry, looked up): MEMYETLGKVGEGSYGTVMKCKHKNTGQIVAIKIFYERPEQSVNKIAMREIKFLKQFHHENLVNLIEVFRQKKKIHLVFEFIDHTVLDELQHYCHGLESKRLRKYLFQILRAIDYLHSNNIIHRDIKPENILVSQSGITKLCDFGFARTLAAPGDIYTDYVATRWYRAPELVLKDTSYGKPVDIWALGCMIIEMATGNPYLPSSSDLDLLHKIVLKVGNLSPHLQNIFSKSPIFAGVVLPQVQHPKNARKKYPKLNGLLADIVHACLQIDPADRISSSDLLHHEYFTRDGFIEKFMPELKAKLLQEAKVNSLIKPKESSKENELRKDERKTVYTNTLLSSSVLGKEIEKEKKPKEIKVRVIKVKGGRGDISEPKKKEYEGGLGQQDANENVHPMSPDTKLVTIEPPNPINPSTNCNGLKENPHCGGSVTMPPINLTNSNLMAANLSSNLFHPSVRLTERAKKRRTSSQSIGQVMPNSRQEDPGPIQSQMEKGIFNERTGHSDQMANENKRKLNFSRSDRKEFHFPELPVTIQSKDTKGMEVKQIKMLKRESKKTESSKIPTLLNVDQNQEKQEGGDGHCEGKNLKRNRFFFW
# Sequence of UniProt Q8IU85 (whole entry, looked up): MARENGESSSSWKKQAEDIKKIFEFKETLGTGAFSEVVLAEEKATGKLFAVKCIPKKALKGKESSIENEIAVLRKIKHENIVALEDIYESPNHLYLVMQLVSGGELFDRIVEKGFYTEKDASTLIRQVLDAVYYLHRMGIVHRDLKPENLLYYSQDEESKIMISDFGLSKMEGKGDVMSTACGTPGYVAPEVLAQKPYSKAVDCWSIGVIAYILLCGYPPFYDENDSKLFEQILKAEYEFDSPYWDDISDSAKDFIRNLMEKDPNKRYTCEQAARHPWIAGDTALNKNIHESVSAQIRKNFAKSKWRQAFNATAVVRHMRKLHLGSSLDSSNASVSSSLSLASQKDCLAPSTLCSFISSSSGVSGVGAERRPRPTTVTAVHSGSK
# Sequence of UniProt Q86UE8 (whole entry, looked up): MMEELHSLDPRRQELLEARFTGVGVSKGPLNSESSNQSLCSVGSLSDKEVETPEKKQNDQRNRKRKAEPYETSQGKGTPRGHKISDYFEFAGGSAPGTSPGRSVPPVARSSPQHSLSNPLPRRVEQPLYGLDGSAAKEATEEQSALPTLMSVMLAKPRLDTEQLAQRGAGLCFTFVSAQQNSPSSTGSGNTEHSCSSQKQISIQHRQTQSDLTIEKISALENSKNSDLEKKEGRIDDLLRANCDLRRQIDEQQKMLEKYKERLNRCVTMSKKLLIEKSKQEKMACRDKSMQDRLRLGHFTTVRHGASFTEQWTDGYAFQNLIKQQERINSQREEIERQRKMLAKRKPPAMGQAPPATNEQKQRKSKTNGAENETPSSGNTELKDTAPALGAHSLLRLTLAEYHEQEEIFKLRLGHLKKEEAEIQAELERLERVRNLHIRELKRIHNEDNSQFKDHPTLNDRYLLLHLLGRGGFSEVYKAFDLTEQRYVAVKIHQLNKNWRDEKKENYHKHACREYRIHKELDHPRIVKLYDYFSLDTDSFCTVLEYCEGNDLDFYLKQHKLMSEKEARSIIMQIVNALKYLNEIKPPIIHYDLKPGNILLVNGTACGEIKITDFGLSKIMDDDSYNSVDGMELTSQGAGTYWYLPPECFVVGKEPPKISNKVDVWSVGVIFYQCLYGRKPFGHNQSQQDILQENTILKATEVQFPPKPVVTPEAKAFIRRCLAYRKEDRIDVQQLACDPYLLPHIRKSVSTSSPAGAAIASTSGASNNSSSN
# Sequence of UniProt Q8IWQ3 (whole entry, looked up): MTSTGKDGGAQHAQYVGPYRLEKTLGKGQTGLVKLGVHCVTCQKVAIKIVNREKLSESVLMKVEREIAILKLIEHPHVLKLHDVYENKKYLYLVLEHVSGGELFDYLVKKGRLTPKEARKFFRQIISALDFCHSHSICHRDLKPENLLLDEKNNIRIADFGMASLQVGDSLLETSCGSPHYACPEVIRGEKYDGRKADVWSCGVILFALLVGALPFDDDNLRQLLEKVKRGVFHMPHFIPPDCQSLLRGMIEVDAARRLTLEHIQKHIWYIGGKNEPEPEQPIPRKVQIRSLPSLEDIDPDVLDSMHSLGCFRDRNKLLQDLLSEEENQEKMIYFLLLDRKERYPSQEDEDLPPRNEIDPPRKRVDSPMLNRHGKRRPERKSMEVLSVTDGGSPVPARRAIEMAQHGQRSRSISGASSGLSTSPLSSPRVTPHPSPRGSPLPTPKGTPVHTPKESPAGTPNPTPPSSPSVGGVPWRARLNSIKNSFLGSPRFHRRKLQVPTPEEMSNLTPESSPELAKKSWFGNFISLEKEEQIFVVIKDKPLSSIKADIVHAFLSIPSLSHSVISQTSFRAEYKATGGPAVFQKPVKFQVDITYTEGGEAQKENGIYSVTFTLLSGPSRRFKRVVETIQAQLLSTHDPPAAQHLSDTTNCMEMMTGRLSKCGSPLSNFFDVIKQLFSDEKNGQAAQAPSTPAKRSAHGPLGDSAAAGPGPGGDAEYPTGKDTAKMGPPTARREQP
# Sequence of UniProt P37023 (whole entry, looked up): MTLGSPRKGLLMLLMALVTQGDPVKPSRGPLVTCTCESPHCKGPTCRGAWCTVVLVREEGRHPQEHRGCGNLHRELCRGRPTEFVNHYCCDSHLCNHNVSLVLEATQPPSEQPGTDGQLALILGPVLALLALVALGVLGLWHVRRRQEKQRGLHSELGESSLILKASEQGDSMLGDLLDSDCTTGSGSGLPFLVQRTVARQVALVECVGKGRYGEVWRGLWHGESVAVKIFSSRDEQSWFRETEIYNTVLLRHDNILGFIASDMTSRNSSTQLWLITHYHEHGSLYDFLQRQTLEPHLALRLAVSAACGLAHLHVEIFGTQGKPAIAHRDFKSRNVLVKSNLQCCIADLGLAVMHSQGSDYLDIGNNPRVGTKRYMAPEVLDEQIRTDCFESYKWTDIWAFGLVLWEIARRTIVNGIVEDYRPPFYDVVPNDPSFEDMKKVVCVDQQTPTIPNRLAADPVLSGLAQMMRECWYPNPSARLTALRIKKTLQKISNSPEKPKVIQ
# Sequence of UniProt P16234 (whole entry, looked up): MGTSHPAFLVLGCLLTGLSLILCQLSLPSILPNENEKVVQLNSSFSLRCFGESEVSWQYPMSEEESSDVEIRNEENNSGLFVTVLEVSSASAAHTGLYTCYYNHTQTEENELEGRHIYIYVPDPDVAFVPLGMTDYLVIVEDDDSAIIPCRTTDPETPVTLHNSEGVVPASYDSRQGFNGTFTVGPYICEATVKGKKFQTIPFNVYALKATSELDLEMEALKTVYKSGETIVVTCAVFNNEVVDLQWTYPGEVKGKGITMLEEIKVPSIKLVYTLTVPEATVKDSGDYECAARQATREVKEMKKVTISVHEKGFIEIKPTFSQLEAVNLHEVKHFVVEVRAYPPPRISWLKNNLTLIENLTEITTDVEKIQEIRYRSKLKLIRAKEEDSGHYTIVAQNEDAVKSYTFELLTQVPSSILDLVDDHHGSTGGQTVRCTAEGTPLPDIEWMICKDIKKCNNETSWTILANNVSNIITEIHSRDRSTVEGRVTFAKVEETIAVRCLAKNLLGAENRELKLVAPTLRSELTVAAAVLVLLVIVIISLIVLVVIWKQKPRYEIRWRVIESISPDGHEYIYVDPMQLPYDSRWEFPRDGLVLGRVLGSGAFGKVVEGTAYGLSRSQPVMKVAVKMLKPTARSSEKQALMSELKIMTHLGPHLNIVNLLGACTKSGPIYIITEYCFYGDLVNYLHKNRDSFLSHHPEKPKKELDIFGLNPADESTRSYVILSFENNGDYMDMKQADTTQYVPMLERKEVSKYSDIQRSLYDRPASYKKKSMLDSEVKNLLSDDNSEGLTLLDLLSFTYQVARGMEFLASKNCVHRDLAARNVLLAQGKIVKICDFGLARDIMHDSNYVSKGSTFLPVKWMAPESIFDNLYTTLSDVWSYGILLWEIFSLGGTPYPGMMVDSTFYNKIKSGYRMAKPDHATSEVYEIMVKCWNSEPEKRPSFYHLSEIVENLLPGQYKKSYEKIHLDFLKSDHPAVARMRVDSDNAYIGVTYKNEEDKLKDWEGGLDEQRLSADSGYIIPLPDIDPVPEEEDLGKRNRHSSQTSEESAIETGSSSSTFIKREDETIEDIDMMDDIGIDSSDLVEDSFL

# Series 1
# Host: mouse
# Sample: microsomes or S9
# Tested at: 2 µM
# Time: 0.5 h
Structure (SMILES),remaining compound
CCCc1c(C(=O)NC2CC2)nnn1-c1ccc(NC(=O)CC(F)(F)F)cc1,51.9%
CCCOc1ccc(S(=O)(=O)n2nc(C)cc2C)cc1C,0.0699%
CCc1nc(CNc2ncnc3cc(Br)sc23)co1,0.499%
CCc1ccc(OCC(=O)c2cc(CC)c(OC)cc2OC)cc1,4.25%

# Series 2
# Target: Transcriptional repressor CTCF (CTCF, Homo sapiens, UniProt P49711, residues 1-727, full length assumed)
# Technique: protein-binding microarray
# Form: double-stranded DNA, one strand shown
# Sample: in vitro
# Tested at: not given
# Notes: k-mer, scored over probes, only values ≥0.25
# Direction: higher = stronger binding
# Construct (chain): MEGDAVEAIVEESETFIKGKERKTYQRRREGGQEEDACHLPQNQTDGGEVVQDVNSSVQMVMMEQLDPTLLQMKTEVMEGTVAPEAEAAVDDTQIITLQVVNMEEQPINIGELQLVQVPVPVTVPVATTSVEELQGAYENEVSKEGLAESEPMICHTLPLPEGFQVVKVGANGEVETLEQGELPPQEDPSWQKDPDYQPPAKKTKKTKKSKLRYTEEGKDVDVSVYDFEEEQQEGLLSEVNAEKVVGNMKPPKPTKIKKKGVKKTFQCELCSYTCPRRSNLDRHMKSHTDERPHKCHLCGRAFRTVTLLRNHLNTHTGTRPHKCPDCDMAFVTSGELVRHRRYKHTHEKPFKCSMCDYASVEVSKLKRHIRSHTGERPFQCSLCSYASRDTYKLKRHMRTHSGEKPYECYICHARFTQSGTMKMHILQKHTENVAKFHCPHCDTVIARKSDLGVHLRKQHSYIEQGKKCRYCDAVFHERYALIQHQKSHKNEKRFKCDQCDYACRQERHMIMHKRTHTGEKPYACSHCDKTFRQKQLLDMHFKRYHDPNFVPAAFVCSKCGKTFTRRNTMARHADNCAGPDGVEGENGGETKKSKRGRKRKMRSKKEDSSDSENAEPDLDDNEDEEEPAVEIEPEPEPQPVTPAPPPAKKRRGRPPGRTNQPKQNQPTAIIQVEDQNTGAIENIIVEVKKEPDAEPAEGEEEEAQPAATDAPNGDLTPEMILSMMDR
Sequence,E-score
ACGTATTA,0.263
GAAATTAC,0.263
AGGCGTAT,0.261
ATTTGTAA,0.27
CATACACA,0.273
CATTACCA,0.355
AATAATAG,0.276
AAACAACT,0.257

# Series 3
# SMILES: CN(C(=O)c1ccccc1)c1cc(N(C)c2ccc3c(c2)CCc2ccc(C(=O)NCCN4CCOCC4)cc2C3=O)ccc1F
# Tested at: 1 µM
target,read-out,technique,remaining binding [%]
"CDKL3 (Homo sapiens, UniProt Q8IVW4)",cell-free assay,competition with immobilised ligand,96
"CDC42BPG (Homo sapiens, UniProt Q6DT37)",,competition binding,98
"MAP3K12 (Homo sapiens, UniProt Q12852)",cell-free assay,competition with immobilised ligand,100
"BRSK2 (Homo sapiens, UniProt Q8IWQ3)",cell-free assay,competition with immobilised ligand,81
"CAMK1D (Homo sapiens, UniProt Q8IU85)",cell-free assay,competition with immobilised ligand,100
"TESK1 (Homo sapiens, UniProt Q15569)",cell-free assay,competition with immobilised ligand,100
"MAK (Homo sapiens, UniProt P20794)",cell-free assay,competition with immobilised ligand,100
"PRKCQ (Homo sapiens, UniProt Q04759)",cell-free assay,competition with immobilised ligand,90
"PRKAA1 (Homo sapiens, UniProt Q13131)",cell-free assay,competition with immobilised ligand,100
"TLK2 (Homo sapiens, UniProt Q86UE8)",cell-free assay,competition with immobilised ligand,87
"CAMK2G (Homo sapiens, UniProt Q13555)",cell-free assay,competition with immobilised ligand,88
"PDGFRA (Homo sapiens, UniProt P16234)",cell-free assay,competition with immobilised ligand,86
"ACVRL1 (Homo sapiens, UniProt P37023)",cell-free assay,competition with immobilised ligand,96

# Other studies, line by line
# Technique: PRP chromatography estimate
# Sample: 1,9-decadiene/PBS
# pH: 7.4
SMILES,logD
CCC[C@H]1NC(=O)CSC[C@@H](C(=O)OCC)N(C)C(=O)[C@H](CC(C)C)NC(=O)[C@@H](C)N(C)C(=O)[C@@H](CC(C)C)NC(=O)[C@H](C)N(C)C(=O)[C@@H]2CCCN2C(=O)[C@H](CC(C)C)NC(=O)CN(C)C1=O,-0.258
CC(C)C[C@@H]1NC(=O)[C@H](CC(C)C)NC(=O)[C@@H](CC(C)C)NC(=O)[C@@H](C)NC(=O)[C@H](C(C)C)NC(=O)[C@H](C)NC(=O)[C@H](C)NC1=O,-2.68
